# Published values from different studies.
# By UniProt entry, the sequences of proteins in these tests, tags left out. Residues count along the entry.
# UniProt Q61009, whole entry: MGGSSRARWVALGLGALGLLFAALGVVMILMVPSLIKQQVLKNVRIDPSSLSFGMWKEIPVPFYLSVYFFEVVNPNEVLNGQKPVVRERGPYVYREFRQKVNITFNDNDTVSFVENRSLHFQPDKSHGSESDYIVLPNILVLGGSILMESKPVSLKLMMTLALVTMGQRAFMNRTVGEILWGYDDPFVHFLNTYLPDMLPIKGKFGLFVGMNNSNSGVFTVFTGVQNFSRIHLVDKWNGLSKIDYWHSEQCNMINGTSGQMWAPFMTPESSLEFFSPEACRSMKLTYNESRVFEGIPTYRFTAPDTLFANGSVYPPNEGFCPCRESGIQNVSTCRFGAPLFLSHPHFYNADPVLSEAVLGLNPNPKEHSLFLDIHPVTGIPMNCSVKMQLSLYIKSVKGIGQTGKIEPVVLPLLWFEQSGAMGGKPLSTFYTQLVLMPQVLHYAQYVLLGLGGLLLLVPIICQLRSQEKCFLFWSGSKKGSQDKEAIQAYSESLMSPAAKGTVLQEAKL
# UniProt Q9NV35, whole entry: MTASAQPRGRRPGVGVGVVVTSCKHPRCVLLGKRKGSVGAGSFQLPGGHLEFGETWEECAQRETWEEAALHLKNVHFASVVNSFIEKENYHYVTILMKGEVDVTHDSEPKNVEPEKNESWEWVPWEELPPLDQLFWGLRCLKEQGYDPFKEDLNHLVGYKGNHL
# UniProt P24280, whole entry: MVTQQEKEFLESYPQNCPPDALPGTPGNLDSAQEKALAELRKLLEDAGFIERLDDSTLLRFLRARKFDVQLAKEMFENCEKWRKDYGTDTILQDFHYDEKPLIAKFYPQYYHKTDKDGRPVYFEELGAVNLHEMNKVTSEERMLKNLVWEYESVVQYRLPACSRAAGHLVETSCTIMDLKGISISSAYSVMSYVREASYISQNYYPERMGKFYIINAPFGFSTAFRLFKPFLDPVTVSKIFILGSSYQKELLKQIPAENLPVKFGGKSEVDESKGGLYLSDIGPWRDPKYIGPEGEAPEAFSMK
# UniProt P46098, whole entry, looked up: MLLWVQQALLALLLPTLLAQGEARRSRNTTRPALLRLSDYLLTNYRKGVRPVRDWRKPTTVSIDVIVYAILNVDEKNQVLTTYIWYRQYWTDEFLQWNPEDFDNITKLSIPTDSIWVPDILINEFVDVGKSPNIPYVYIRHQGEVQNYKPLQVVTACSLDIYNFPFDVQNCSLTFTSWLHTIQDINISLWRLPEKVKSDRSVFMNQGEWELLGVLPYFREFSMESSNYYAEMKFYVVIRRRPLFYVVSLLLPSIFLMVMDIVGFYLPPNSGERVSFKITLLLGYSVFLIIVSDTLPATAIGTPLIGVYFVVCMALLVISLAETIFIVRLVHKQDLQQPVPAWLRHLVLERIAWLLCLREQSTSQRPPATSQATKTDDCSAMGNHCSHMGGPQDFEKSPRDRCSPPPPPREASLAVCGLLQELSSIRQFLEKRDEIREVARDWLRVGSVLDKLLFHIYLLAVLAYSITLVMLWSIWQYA
# UniProt Q14790, 214-479 D374A/D384A/C409S/C433S limits assumed: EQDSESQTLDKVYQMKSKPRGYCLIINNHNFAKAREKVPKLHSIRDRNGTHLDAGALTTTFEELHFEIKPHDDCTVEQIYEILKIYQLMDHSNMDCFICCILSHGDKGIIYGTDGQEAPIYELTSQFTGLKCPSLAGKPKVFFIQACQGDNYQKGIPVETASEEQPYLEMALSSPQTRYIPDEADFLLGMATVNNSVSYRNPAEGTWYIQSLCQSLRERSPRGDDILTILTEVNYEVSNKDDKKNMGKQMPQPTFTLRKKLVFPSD
# UniProt Q6ZMT4, 92-488 limits assumed: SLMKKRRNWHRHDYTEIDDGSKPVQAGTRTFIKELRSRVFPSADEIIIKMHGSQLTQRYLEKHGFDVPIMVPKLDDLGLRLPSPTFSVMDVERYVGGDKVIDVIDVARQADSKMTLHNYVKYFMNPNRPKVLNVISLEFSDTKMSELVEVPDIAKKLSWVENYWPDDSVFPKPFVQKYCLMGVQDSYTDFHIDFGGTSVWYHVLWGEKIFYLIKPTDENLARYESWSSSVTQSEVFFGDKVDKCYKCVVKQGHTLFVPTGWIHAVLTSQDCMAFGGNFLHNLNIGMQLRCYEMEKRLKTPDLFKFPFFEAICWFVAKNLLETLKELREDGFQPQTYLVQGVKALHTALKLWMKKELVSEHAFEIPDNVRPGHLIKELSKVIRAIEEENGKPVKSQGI
# UniProt Q02936, whole entry, looked up: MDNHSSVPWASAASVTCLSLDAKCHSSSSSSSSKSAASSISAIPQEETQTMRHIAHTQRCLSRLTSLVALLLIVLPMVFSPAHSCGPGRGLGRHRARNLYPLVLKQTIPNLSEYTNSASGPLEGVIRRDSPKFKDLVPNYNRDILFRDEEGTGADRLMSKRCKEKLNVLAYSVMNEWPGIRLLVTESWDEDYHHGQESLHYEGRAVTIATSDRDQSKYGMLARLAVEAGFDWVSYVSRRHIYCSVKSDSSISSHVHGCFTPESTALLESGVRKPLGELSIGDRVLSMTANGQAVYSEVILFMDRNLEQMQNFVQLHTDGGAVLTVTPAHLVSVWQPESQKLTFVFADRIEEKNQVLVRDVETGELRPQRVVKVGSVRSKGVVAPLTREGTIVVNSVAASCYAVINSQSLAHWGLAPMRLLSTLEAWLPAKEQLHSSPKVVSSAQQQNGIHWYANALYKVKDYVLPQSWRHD
# UniProt P26842, whole entry, looked up: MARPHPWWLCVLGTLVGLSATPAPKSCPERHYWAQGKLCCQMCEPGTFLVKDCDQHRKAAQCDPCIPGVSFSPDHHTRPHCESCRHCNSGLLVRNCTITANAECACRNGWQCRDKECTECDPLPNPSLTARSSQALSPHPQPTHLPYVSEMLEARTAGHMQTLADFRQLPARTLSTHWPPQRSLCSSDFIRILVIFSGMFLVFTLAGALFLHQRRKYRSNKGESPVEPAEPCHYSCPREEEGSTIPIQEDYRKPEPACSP
# UniProt P08183, whole entry: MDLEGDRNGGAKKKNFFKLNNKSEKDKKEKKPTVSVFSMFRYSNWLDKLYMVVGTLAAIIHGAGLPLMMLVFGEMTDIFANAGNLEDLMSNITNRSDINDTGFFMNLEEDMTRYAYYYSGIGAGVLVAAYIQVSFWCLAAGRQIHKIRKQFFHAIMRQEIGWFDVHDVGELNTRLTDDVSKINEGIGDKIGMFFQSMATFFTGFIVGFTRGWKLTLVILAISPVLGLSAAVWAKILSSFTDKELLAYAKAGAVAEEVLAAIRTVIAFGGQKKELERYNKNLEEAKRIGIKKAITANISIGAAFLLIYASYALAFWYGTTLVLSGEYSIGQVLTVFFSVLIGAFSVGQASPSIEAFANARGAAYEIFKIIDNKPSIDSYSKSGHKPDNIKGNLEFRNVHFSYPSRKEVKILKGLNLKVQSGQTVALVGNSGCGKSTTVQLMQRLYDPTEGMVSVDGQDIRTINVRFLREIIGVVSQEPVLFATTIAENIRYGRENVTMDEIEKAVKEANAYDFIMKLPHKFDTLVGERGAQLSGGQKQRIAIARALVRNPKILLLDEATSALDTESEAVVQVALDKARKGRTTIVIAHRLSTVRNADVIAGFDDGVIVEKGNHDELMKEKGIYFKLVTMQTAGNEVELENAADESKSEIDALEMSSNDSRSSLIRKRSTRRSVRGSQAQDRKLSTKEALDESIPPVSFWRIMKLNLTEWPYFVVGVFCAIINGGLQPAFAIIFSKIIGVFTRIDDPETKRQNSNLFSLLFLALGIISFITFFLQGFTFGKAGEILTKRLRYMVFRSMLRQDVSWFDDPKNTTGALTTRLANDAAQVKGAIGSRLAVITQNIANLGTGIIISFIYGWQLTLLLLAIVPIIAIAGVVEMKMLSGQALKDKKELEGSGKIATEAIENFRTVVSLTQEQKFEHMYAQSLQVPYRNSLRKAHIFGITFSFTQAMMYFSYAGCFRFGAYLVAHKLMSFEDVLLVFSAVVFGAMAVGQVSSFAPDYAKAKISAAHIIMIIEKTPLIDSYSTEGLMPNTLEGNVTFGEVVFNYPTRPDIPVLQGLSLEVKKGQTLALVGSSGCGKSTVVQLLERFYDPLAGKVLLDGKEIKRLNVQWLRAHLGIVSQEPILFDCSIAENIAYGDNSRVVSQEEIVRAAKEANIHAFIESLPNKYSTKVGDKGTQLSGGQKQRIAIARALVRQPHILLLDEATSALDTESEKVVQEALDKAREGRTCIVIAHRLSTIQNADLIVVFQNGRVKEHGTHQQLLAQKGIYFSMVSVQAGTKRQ
# UniProt Q6PL18, 980-1092 limits assumed: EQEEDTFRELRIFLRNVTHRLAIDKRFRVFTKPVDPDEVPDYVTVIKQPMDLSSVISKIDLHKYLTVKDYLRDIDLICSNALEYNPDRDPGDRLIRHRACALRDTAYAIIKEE
# UniProt Q12809, whole entry: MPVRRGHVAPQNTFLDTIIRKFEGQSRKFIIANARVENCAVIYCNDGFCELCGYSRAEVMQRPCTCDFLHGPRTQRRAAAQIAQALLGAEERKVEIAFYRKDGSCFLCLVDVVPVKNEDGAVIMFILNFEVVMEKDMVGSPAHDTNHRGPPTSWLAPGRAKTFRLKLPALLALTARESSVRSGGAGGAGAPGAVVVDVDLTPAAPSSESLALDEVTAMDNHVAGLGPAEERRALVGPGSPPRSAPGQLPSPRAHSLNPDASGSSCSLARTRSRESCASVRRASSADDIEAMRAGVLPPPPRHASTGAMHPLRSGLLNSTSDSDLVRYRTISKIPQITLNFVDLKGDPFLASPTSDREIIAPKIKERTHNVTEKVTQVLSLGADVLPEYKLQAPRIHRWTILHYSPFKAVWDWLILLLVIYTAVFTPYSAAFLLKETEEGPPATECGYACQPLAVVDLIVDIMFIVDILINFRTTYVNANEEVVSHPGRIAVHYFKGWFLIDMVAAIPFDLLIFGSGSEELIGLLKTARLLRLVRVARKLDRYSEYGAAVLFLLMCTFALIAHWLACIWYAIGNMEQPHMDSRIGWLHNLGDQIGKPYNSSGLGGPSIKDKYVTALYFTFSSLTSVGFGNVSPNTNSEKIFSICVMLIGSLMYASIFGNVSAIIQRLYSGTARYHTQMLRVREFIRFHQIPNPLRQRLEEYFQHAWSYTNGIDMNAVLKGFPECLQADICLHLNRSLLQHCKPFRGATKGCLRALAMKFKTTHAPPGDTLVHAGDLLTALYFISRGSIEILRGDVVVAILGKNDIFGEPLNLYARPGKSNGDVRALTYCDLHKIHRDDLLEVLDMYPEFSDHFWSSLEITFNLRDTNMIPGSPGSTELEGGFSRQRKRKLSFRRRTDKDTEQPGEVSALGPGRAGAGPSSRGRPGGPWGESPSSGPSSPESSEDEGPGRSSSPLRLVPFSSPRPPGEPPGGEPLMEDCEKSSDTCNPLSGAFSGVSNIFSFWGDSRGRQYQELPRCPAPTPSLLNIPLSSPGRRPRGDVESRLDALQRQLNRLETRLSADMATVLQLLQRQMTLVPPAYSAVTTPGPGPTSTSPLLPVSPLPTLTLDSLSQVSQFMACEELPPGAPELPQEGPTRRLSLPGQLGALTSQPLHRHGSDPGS
# UniProt O94788, 27-518 limits assumed: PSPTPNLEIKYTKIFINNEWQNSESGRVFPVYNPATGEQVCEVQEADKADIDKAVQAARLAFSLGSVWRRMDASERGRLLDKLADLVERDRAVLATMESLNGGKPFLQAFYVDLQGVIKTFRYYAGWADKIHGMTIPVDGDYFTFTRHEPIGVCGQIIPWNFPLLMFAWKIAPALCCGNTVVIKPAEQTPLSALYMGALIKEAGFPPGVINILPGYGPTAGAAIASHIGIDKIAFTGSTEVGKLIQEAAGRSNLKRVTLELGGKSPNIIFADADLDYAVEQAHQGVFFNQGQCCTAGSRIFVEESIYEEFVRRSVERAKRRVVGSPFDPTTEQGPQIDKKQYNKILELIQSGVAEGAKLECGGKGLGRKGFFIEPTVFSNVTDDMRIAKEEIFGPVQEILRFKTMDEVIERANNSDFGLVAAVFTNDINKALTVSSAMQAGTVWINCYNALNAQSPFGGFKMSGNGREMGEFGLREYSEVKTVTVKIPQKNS
# Each line is one published result; not all experiments were run side by side. ± gives the spread as reported.
# Scavenger receptor class B member 1: Scavenger receptor class B member 1 (Mus musculus, UniProt Q61009)
# NUDT15: Nucleotide triphosphate diphosphatase NUDT15 (NUDT15, Homo sapiens, UniProt Q9NV35)
# SEC14: SEC14 (Saccharomyces cerevisiae, UniProt P24280)
SMILES,target or system,assay,system,setting,scale,measurement,value
CCC(=O)N1CC(C)(C)c2cc(-c3csc(NC(=O)c4ccco4)n3)ccc21,Scavenger receptor class B member 1,"DiI-HDL uptake, inhibitor",mouse cells,together with: DiI-HDL,,IC50,20 nM
"O=C1c2cccc3[nH]nc(c23)CCN1[C@@H]1CN2CCC1CC2 (single isomer, unassigned)","5-hydroxytryptamine receptor 3A (HTR3A, Homo sapiens, UniProt P46098)","binding, [3H]granisetron SPA displacement",,"pH 10, together with: [3H]granisetron 10 nM",,Ki,2.26 ± 0.48 nM
O=C(c1cccc(Br)c1)N1CCN(S(=O)(=O)c2ccc3[nH]c(=O)oc3c2)CC1,NUDT15,"enzyme activity, inhibitor, malachite green",,together with: dGTP,,IC50,107 nM
O=C(c1ccc(N2CCOCC2)cc1)N1CCC[C@@H](N(C(=O)CCl)c2ccccc2)C1,"Caspase-8 (CASP8, Homo sapiens, UniProt Q14790, C409S/C433S/D374A/D384A)","probe labeling, competitive gel-based ABPP",HEK293T cell lysate,"1 h, together with: alkyne probe 10 µM",,IC50,750 nM
COc1cc2c(NC3CCN(Cc4ccccc4)CC3)nc(NCCCN(C)C)nc2cc1OCCCCCN,"Lysine-specific demethylase 7A, Jumonji domain (KDM7A, Homo sapiens, UniProt Q6ZMT4)","demethylase activity, inhibitor, mass spectrometry",,together with: H3K9me2 peptide,,Ki,2500 nM
N=C(N)Nc1ccc(C(=O)N2CCN(S(=O)(=O)c3ccc4[nH]c(=O)oc4c3)CC2)cc1,NUDT15,"enzyme activity, inhibitor, malachite green",,together with: dGTP,,IC50,1800 nM
CCc1nc(C)c(C(=O)N2CCCN(c3nc4ccccc4s3)CC2)o1,"hh, C-terminal autoprocessing domain (Drosophila melanogaster, UniProt Q02936)","cholesterol-independent autoprocessing, activator, FRET reporter",,"no cholesterol, together with: C-H-Y 0.1 µM",,AC50,5000 nM
COCC(=O)N1CC(C)(C)c2cc(-c3csc(NC(=O)c4cc(OC)cc(OC)c4)n3)ccc21,Scavenger receptor class B member 1,"DiI-HDL uptake, inhibitor",mouse cells,together with: DiI-HDL,,IC50,90 nM
Cc1ccc(C(=O)N2CCN(S(=O)(=O)c3ccc4[nH]c(=O)oc4c3)CC2)cc1,NUDT15,"enzyme activity, inhibitor, malachite green",,together with: dGTP,,IC50,146 nM
O=C(c1ccco1)N1CCN(c2cc(NCCO)c([N+](=O)[O-])c3nonc23)CC1,"CD27 antigen (CD27, Homo sapiens, UniProt P26842)","binding, microscale thermophoresis",,,,Kd,15100 nM
Cc1cncc(-c2ccc(N[C@@H]3CCNC[C@H]3OCC3CCS(=O)(=O)CC3)c3[nH]c(=O)c(C)cc23)c1,,PAMPA,artificial membrane,pH 7.4,,permeability,< 0.3 ×10⁻⁶ cm/s
CC1(CNC(=O)c2ccc(C#Cc3ccccc3)cc2)NC(=O)NC1=O (centres unmarked),,,aqueous buffer,pH 7.4,,solubility,< 2480 µg/mL
O=C(c1ccc2[nH]ccc2c1)N1CCN(C(=O)c2ccc3[nH]c(=O)oc3c2)CC1,NUDT15,"enzyme activity, inhibitor, malachite green",,together with: dGTP,,IC50,> 100000 nM
CN(C)c1ccc2c(-c3ccc(C(=O)O)s3)c3ccc(=[N+](C)C)cc-3sc2c1,"ATP-dependent translocase ABCB1 (ABCB1, Homo sapiens, UniProt P08183)","ATPase activity, substrate",,half-maximal ATPase stimulation,,Km,140 ± 11 µM
CN(C)S(=O)(=O)c1ccc(NCCN2CCC(Nc3nc4ccccc4n3Cc3ccc(F)cc3)CC2)c2nonc12,,,Tris-HCl assay buffer,,,excitation wavelength,415 nm
Cc1ccc(N2CCN(C(=O)c3ccc(Cl)c([N+](=O)[O-])c3)CC2)cc1C,SEC14,"phosphatidylinositol transfer, inhibitor",,"Sec14 287 nM, together with: [3H]-phosphatidylinositol",,IC50,186 ± 25 nM
Cc1cc2c(-c3cncc(N)c3)cnc(N[C@@H]3CCNC[C@H]3OCC3CCS(=O)(=O)CC3)c2[nH]c1=O,"ATPase family AAA domain-containing protein 2 (ATAD2, Homo sapiens, UniProt Q6PL18)",TR-FRET,,,relative to: ATAD2 over BRD4 BD1,selectivity,1.9 log units
CN(C)S(=O)(=O)c1ccc(NCCCCN2CCC(Nc3nc4ccccc4n3Cc3ccc(F)cc3)CC2)c2nonc12,"Voltage-gated inwardly rectifying potassium channel KCNH2 (KCNH2, Homo sapiens, UniProt Q12809)","binding, radioligand displacement",hERG membranes,together with: 9 nM [3H]dofetilide,,IC50,14 nM
O=C(c1ccc(Cl)c([N+](=O)[O-])c1)N1CCN(c2cccc(C(F)(F)F)c2)CC1,SEC14,"phosphatidylinositol transfer, inhibitor",,"Sec14 287 nM, together with: [3H]-phosphatidylinositol",,IC50,386 ± 48 nM
CCOc1ccsc1C(=O)N1CCN(c2ccc([N+](=O)[O-])c(N3CCCC3)c2)CC1,"Retinal dehydrogenase 2 (ALDH1A2, Homo sapiens, UniProt O94788)","binding, isothermal titration calorimetry",,"30 °C, together with: NAD 1 mM",,Kd,260 ± 40 nM

# A few entries again:
SMILES,target or system,assay,system,setting,scale,measurement,value
Cc1ccc(C(=O)N2CCN(S(=O)(=O)c3ccc4[nH]c(=O)oc4c3)CC2)cc1,NUDT15,"enzyme activity, inhibitor, malachite green",,together with: dGTP,,IC50,146 nM
O=C(c1cccc(Br)c1)N1CCN(S(=O)(=O)c2ccc3[nH]c(=O)oc3c2)CC1,NUDT15,"enzyme activity, inhibitor, malachite green",,together with: dGTP,,IC50,107 nM
Cc1cc2c(-c3cncc(N)c3)cnc(N[C@@H]3CCNC[C@H]3OCC3CCS(=O)(=O)CC3)c2[nH]c1=O,"ATPase family AAA domain-containing protein 2 (ATAD2, Homo sapiens, UniProt Q6PL18)",TR-FRET,,,relative to: ATAD2 over BRD4 BD1,selectivity,1.9 log units
